Assay results pooled from the literature.
Lines come from different studies, so protocols differ. Several values in a cell are separate wells, animals, samples, runs or records. ± marks the error that the study gave.
BEST2: Bestrophin-2a (BEST2, Homo sapiens, UniProt Q8NFU1)
Sequence of UniProt Q8NFU1 (whole entry, looked up): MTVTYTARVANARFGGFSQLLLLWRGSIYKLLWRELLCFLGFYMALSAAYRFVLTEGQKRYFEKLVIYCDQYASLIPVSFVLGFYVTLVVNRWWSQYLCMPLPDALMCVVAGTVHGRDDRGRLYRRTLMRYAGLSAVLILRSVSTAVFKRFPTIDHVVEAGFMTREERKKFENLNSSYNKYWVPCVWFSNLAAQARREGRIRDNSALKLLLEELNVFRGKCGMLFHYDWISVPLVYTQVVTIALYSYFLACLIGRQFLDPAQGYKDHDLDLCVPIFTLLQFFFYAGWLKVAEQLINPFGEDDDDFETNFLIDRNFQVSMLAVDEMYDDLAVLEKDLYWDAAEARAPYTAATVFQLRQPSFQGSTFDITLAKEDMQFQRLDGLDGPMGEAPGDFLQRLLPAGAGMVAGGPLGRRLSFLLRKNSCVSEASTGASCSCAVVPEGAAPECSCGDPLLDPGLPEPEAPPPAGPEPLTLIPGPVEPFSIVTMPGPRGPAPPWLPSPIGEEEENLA
T1: ssDNA, aptamer; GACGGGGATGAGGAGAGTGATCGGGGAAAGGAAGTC
Sequence of UniProt O75030 (1-296, unmodified, looked up): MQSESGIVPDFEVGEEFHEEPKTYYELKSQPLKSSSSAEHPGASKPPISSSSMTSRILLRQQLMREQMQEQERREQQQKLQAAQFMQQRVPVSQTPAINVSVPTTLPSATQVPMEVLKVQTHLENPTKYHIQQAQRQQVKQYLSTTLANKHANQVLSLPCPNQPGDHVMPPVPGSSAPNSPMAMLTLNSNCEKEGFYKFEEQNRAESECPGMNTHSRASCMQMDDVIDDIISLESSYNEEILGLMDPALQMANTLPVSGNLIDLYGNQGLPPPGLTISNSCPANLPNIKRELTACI
Sequence of UniProt P10276 (whole entry, looked up): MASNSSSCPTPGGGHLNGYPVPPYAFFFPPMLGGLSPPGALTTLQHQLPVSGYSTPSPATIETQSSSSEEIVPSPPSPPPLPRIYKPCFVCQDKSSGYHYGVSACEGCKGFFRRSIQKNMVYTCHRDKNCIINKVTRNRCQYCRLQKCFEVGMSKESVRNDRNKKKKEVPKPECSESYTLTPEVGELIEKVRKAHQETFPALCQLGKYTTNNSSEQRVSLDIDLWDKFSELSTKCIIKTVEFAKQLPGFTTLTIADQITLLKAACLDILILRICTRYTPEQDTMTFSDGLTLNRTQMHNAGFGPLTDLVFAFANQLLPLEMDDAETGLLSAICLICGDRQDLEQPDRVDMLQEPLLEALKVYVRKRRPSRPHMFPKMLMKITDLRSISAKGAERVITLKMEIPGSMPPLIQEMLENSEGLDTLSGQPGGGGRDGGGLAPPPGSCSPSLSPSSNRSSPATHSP
Sequence of UniProt Q59KM8 (whole entry, looked up): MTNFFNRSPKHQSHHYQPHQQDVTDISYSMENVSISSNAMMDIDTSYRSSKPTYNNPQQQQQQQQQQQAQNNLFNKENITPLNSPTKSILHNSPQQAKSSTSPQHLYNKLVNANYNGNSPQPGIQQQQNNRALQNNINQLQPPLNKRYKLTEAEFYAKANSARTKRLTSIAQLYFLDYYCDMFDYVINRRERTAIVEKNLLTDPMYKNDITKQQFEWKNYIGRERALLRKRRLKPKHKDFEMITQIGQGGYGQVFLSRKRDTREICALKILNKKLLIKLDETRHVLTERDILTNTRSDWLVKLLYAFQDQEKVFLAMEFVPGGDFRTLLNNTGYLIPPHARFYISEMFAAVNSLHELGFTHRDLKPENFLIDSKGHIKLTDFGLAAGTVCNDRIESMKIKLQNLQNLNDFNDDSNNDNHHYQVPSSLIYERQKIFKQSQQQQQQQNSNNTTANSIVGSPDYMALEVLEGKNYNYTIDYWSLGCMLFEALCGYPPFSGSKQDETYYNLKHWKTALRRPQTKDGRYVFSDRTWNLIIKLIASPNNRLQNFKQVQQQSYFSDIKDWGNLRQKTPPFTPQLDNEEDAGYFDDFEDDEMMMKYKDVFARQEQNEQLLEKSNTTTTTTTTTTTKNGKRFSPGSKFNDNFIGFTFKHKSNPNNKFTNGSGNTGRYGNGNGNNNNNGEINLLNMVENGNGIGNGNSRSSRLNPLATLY
Sequence of UniProt P04062 (whole entry, unmodified, looked up): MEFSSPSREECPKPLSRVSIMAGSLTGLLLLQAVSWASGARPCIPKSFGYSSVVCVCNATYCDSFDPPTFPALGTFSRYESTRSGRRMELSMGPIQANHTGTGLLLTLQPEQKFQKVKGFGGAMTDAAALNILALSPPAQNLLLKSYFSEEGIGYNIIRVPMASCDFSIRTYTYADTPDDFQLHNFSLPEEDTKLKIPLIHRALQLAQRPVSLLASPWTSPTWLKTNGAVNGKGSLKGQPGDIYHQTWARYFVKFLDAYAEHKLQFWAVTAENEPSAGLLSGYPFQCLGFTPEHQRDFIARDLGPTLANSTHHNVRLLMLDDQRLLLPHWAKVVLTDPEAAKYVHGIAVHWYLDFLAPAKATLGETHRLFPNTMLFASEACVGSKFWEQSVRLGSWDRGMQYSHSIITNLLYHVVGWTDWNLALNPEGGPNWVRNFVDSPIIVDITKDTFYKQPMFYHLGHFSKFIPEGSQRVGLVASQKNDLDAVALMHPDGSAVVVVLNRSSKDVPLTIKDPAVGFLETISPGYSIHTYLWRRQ
Sequence of UniProt P22748 (whole entry, unmodified, looked up): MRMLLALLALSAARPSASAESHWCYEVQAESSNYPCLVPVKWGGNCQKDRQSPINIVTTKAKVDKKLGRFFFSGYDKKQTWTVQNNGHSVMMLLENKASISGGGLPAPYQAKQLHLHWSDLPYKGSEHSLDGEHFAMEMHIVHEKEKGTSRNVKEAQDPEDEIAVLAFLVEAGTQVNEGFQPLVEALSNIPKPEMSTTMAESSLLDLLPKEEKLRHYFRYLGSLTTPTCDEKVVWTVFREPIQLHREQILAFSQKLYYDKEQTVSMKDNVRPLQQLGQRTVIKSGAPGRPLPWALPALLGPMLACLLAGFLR
Sequence of UniProt Q80VM9 (whole entry, looked up): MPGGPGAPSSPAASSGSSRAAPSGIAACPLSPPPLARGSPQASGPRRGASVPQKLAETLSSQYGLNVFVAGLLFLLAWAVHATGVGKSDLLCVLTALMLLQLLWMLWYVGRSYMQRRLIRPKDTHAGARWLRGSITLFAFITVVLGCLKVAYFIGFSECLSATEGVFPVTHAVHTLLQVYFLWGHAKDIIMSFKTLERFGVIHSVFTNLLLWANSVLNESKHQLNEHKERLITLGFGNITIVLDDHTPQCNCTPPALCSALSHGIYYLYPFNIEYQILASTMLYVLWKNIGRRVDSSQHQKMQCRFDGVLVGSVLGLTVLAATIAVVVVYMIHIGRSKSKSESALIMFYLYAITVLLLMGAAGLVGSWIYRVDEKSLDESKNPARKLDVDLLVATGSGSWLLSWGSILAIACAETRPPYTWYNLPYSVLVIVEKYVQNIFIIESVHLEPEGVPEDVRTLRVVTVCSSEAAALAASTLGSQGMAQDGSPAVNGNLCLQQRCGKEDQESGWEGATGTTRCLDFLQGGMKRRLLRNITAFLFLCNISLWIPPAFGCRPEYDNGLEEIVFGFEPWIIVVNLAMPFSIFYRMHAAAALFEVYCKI
Sequence of UniProt O96017 (whole entry, looked up): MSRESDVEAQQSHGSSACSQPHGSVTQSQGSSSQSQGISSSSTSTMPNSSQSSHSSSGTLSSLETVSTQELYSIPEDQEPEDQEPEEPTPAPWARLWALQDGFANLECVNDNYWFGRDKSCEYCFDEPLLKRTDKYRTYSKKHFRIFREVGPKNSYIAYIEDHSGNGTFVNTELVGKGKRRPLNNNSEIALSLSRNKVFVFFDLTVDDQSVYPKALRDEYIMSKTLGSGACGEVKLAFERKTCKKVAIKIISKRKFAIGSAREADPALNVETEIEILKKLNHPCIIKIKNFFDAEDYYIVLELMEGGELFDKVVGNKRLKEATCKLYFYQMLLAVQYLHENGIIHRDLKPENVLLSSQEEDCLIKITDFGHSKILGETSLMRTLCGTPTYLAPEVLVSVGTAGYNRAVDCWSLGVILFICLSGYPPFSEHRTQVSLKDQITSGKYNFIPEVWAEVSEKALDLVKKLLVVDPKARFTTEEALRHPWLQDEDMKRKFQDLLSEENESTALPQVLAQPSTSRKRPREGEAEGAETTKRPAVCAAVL
Sequence of UniProt Q9NZQ7 (whole entry, looked up): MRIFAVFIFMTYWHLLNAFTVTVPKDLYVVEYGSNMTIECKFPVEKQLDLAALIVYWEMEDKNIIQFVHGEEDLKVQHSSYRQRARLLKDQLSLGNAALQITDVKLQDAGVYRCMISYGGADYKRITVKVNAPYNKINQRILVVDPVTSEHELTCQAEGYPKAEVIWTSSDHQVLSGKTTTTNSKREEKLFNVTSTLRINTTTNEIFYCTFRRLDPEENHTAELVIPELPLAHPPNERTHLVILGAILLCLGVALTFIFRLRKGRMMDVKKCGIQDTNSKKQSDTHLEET
Sequence of UniProt Q16774 (whole entry, unmodified, looked up): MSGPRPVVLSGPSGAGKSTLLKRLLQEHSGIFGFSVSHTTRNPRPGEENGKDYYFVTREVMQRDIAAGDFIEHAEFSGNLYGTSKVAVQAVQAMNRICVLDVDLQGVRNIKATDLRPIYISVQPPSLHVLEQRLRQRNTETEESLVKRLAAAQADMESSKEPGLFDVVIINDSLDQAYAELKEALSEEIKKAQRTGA
Sequence of UniProt Q96LA8 (whole entry, looked up): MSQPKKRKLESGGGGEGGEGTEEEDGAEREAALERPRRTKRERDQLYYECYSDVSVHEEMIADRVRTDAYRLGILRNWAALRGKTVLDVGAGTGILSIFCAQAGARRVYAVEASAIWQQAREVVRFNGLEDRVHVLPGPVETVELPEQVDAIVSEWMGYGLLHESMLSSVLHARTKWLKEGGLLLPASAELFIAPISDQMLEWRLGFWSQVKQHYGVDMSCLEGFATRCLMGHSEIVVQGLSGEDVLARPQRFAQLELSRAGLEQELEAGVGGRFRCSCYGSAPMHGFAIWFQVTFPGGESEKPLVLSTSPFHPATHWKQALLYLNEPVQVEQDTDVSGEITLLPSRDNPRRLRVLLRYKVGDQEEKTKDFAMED

| SMILES | target | test | test system | setting | scale | measurement | value |
| --- | --- | --- | --- | --- | --- | --- | --- |
| O=C(O)C1=CCNCC1 | BEST2 | whole-cell patch clamp | HEK293 transiently expressing channel | concentration not given, membrane potential 60 mV |  | current density | 158 pA/pF and 127 pA/pF and 126 pA/pF and 38.2 pA/pF and 239 pA/pF |
| COC(=O)C1CCN(C(=O)c2ccc(SCc3cnc4nc(N)nc(N)c4n3)nc2)CC1 | Pteridine reductase 1 (Leishmania major, UniProt Q01782) |  |  | hDHFR weight 10 | reference: LmPTR1, LmDHFR over hDHFR, 1.0 selective, 0.0 non-selective | partition index | 0.99 |
| Nc1ncnc2c1ncn2[C@@H]1O[C@H](CO[P@](=O)(O)O[P@](=O)(O)O[P@@](=O)(O)S)[C@@H](O)[C@H]1O | GUK1 (Homo sapiens, UniProt Q16774, S13A) | binding, ITC |  |  |  | ΔH | -2.62 ± 0.19 kcal/mol |
| Nc1nc2c(nc(Br)n2[C@@H]2O[C@@H]3COP(=O)(O)O[C@H]3[C@H]2O)c(=O)[nH]1 | anti-cGMP antibody | antibody binding, competitive cGMP EIA |  | concentration not given, acetylated samples | reference: EC50 cGMP over EC50 cpd, higher = stronger binding | relative binding affinity | 4.98 |
| Cc1c(COc2ccc(CN3CCCCC3C(=O)NCCCCNC(=O)CN(C)CCCC34CCC(c5ccccc53)c3ccccc34)cc2Br)cccc1-c1ccccc1 (centres unmarked) | Programmed cell death 1 ligand 1 (CD274, Homo sapiens, UniProt Q9NZQ7) | degrader, western blot | HL-60 | 1 µM |  | degradation | 14.4 ± 1.2% |
| N#Cc1ccc2c(-c3ccncc3)c(-c3ccc(F)cc3)nn2c1 | Mitogen-activated protein kinase MKC1 (MKC1, Candida albicans, UniProt P43068) | kinase binding, competitor, MIB/MS competition, measured: MKC1 | Candida albicans cell lysate | 10 µM | reference: DMSO | log2 fold change | 0.433 |
| CCC(C)(NCCc1ccc(C(F)(F)F)c(Cl)c1)c1cccc(NC2=CC(=O)N(C3CCC(=O)NC3=O)C2=O)c1 (centres unmarked) | Cereblon/Ikaros (Homo sapiens, UniProt Q13422+Q96SW2) | protein degradation, degrader, HiBiT luminescence | Jurkat |  |  | Dmax | 77% |
| CC[C@@H]1[C@H](F)C(=O)N[C@@H]1COc1nccc2cc(C(N)=O)c(OC)cc12 | Serine/threonine-protein kinase Chk2 (CHEK2, Homo sapiens, UniProt O96017) | ATP-site probe binding, ActivX profiling | THP-1 cell lysate | 0.04 mM, Lys2 site |  | inhibition | -4.5% |
| COc1cc(F)ccc1-c1ncnc(Nc2cccc(C[S@](C)(=N)=O)c2)n1 | Ribosomal protein S6 kinase beta-1 (RPS6KB1, Homo sapiens, UniProt P23443) | kinase activity |  | 10 µM, added: 10 µM ATP |  | remaining activity | 97% |
| CC(C)c1noc2ncc(C(=O)c3ccccc3O)cc12 | Otop1 (Mus musculus, UniProt Q80VM9) | pH 8.5-evoked current, patch clamp |  | 10 µM, pH 8.5, preincubated |  | normalized current I2/I1 | 2.38 |
| Nc1ccc(C(=O)O)cc1 | BEST2 | whole-cell patch clamp | HEK293 transiently expressing channel | concentration not given, membrane potential 100 mV |  | current density | 109 pA/pF and 254 pA/pF and 411 pA/pF and 228 pA/pF and 314 pA/pF and 355 pA/pF |
| N#Cc1ccc(C[C@H](NC(=O)c2cc3ccccc3[nH]2)C(=O)N2CCc3ccccc32)cc1 | fMet-Leu-Phe receptor (FPR1, Homo sapiens, UniProt P21462) | calcium mobilization, agonist | HL-60 | concentration not given |  | agonist activity | inactive |
| Cc1cc(=O)oc2cc(O[C@@H]3O[C@H](CO)[C@@H](O)[C@H](O)[C@H]3O)ccc12 | Lysosomal acid glucosylceramidase (GBA1, Homo sapiens, UniProt P04062, R534H) | substrate |  | 5 nM enzyme |  | Vmax | 1.7 pmol/min |
| Cc1cccc(N2CC(C(=O)O)CC2=O)c1 (centres unmarked) | DNA (cytosine-5)-methyltransferase 3A, PWWP domain (DNMT3A, Homo sapiens, UniProt Q9Y6K1) | binding, affinity selection mass spectrometry |  |  | reference: other proteins in batch | log fold enrichment | 0.0464 |
| NCCCC(=O)O | Sodium- and chloride-dependent taurine transporter (SLC6A6, Homo sapiens, UniProt P31641, L306A) | binding, microscale thermophoresis |  | 30.5 nM, room temperature, added: 50 nM labelled protein | higher = more binding | normalised MST signal | 0.174 |
| CC1CCN(c2ccc(Nc3ccc4ncc(OCC5CCNCC5)nc4c3)cc2)CC1 | Protein AF-9, with DOT1L (Homo sapiens, UniProt P42568) | DOT1L binding, AlphaLISA |  | 10 µM |  | inhibition | 64% |

| SMILES | target | test | test system | setting | scale | measurement | value |
| --- | --- | --- | --- | --- | --- | --- | --- |
| C=CC(=O)N1CCC(COCC(=O)N2CCN(c3nc(-c4cnc(N)nc4C(F)F)nc(N4CCOC[C@@H]4C)n3)CC2)CC1 | Proto-oncogene tyrosine-protein kinase receptor Ret (RET, Homo sapiens, UniProt P07949, V804M) | KINOMEscan |  | 1 µM |  | remaining binding | 98% |
| CC(NC(=O)CCCc1ccc2ccc3cccc4ccc1c2c34)C(=O)NO (centres unmarked) | Histone deacetylase 8 (HDAC8, Homo sapiens, UniProt Q9BY41) | ITC | triethanolamine buffer | concentration not given, pH 7.5 |  | binding stoichiometry | 0.9 |
| CCCCN1/C(=C/C=C/c2sc3ccc(Br)cc3[n+]2CCCC)Sc2ccc(Br)cc21.[I-] | Protein arginine N-methyltransferase 6 (PRMT6, Homo sapiens, UniProt Q96LA8) | inhibitor, filter binding |  | added: R4 peptide substrate |  | Hill coefficient | 1.39 |
| O=C1NC(=O)C(c2cnc3ccccn23)=C1c1cn2c3c(cc(F)cc13)CN(C(=O)N1CCCCC1)CC2 | Serine/threonine-protein kinase N1 (PKN1, Homo sapiens, UniProt Q16512) | inhibitor |  |  |  | Hill slope | -0.882 |
| O=C(COP(=O)(O)O)[C@@H](O)[C@H](O)[C@H](O)COP(=O)(O)O | Pyruvate kinase PKM (PKM, Homo sapiens, UniProt P14618) | pyruvate kinase activity, activator | SK-HEP1 cell lysate | added: AIM |  | minimum concentration, maximal activation | 1750 ± 588 nM |
| O=C(O)c1ccc(O)cc1 | BEST2 | whole-cell patch clamp | HEK293 transiently expressing channel | concentration not given, membrane potential -60 mV |  | current density | -67.1 pA/pF and -148 pA/pF and -79.3 pA/pF and -150 pA/pF and -160 pA/pF and -98.8 pA/pF and -194 pA/pF |
| Nc1nc(-c2ccc(Cl)c(S(N)(=O)=O)c2)cs1 | Carbonic anhydrase 4 (CA4, Homo sapiens, UniProt P22748) | ITC |  | concentration not given, 25 °C |  | intrinsic binding TΔS | 34.3 kJ/mol |
| Nc1ncnc2c1ncn2[C@@H]1O[C@H](COP(=O)(O)OP(=O)(O)OP(=O)(O)O)[C@@H](O)[C@H]1O | T1, ssDNA, aptamer | ITC |  |  |  | Kd | 1500 nM |
| O=C(NO)c1ccc(CN2CCCCc3ccccc32)c(F)c1 | GABAA receptor | radioligand binding |  | 10 µM |  | inhibition of radioligand binding | 39% |
| CC(C)c1ccc(CSc2nc(SCc3ccc4sccc4c3)[nH]c(=O)n2)cc1 | DNA topoisomerase 2-alpha (TOP2A, Homo sapiens, UniProt P11388) | decatenation |  | 125 µM, replicate 1 |  | decatenated DNA | 0.15% |
| O=c1c(OS(=O)(=O)[O-])c(-c2ccc(OS(=O)(=O)[O-])c(OS(=O)(=O)[O-])c2)oc2cc(OS(=O)(=O)[O-])cc(OCc3ccc(COc4cc(OS(=O)(=O)[O-])cc5oc(-c6ccc(OS(=O)(=O)[O-])c(OS(=O)(=O)[O-])c6)c(OS(=O)(=O)[O-])c(=O)c45)cc3)c12.[Na+].[Na+].[Na+].[Na+].[Na+].[Na+].[Na+].[Na+] | Neutrophil elastase (ELANE, Homo sapiens, UniProt P08246) | enzyme activity, inhibitor |  | added: chromogenic substrate |  | Hill slope | 1.2 |
| COc1cc(C(=O)NS(=O)(=O)c2ccccc2C)ccc1Cc1cn(C)c2ccc(NC(=O)OC3CCCC3)cc12 | LRRC8A/LRRC8C (Homo sapiens, UniProt Q8IWT6+Q8TDW0) | ion current, inhibitor, whole-cell patch clamp | HCT116 LRRC8 knockout, transfected | -100 mV, LRRC8A/LRRC8C heteromer |  | Hill coefficient | 1.67 |
| O=C(O)c1cc2ccc(C#CC3(O)CCCCC3)cc2n1-c1ccccc1 | Microphthalmia-associated transcription factor, residues 1-296 (Homo sapiens, UniProt O75030) | isothermal titration calorimetry |  | 25 °C |  | -TΔS | 78.7 kJ/mol and 51.5 kJ/mol |
| Oc1ccccc1-c1n[nH]cc1-c1ccnc2ccccc12 | Cell cycle protein kinase DBF2 (DBF2, Candida albicans, UniProt Q59KM8) | kinase binding, MIB/MS competition | Candida albicans lysate | 10 µM | reference: DMSO, negative = stronger binding | log2 fold change | -0.09 |
| CCN1CCC[C@H]1CNC(=O)c1c(O)c(Cl)cc(Cl)c1OC | G-protein coupled estrogen receptor 1 (GPER1, Homo sapiens, UniProt Q99527) | β-arrestin recruitment, TANGO luminescence, measured: GPER |  | concentration not given | reference: basal luminescence | log2 fold change | 0.013 |
| COc1cccc2c(Nc3ccc4[nH]c(C(=O)N/N=C/c5ccc(SC)cc5)cc4c3)cc(C)nc12 | Retinoic acid receptor alpha (RARA, Homo sapiens, UniProt P10276) | reporter gene, Gal4 hybrid reporter |  | 3 µM | reference: vehicle | activation | 0.78 fold |

Repeated from above:
| SMILES | target | test | test system | setting | scale | measurement | value |
| --- | --- | --- | --- | --- | --- | --- | --- |
| Nc1ncnc2c1ncn2[C@@H]1O[C@H](CO[P@](=O)(O)O[P@](=O)(O)O[P@@](=O)(O)S)[C@@H](O)[C@H]1O | GUK1 (Homo sapiens, UniProt Q16774, S13A) | binding, ITC |  |  |  | ΔH | -2.62 ± 0.19 kcal/mol |
| O=c1c(OS(=O)(=O)[O-])c(-c2ccc(OS(=O)(=O)[O-])c(OS(=O)(=O)[O-])c2)oc2cc(OS(=O)(=O)[O-])cc(OCc3ccc(COc4cc(OS(=O)(=O)[O-])cc5oc(-c6ccc(OS(=O)(=O)[O-])c(OS(=O)(=O)[O-])c6)c(OS(=O)(=O)[O-])c(=O)c45)cc3)c12.[Na+].[Na+].[Na+].[Na+].[Na+].[Na+].[Na+].[Na+] | Neutrophil elastase (ELANE, Homo sapiens, UniProt P08246) | enzyme activity, inhibitor |  | added: chromogenic substrate |  | Hill slope | 1.2 |
| COc1cc(F)ccc1-c1ncnc(Nc2cccc(C[S@](C)(=N)=O)c2)n1 | Ribosomal protein S6 kinase beta-1 (RPS6KB1, Homo sapiens, UniProt P23443) | kinase activity |  | 10 µM, added: 10 µM ATP |  | remaining activity | 97% |
| CCN1CCC[C@H]1CNC(=O)c1c(O)c(Cl)cc(Cl)c1OC | G-protein coupled estrogen receptor 1 (GPER1, Homo sapiens, UniProt Q99527) | β-arrestin recruitment, TANGO luminescence, measured: GPER |  | concentration not given | reference: basal luminescence | log2 fold change | 0.013 |
